Results collected from several papers.
Every numbered part comes from another study and shows a few of its results, in no order. Substitutions count along the parent as printed.

Set 1
Target: Phosphate system positive regulatory protein PHO4, full length, GST-tagged (PHO4, Saccharomyces cerevisiae, UniProt P07270, residues 1-312)
Technique: competition protein-binding microarray
Molecule type: double-stranded DNA, one strand shown
Matrix: in vitro
Concentration: 2 µM
Notes: whole 60-bp probe, lowest competitor level
With: Cbf1 competitor, 0.05 µM
Reading: higher = stronger binding
Constant ends, left off below: … GTCTTGATTCGCTTGACGCTGCTG
Residues (chain): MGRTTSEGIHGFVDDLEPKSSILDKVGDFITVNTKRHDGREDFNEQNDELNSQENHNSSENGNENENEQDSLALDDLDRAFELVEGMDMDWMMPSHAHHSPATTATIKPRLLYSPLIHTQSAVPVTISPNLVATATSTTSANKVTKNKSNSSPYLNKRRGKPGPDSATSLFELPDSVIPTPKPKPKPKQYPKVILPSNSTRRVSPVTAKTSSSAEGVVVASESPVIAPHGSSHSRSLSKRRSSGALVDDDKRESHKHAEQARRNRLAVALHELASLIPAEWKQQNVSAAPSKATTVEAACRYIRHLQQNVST
Strand	fluorescence intensity [a.u.]
TTCAATGAAATTCGTCACGTCTCTGAGTTTCCTGAG	4610
GTCTTGTCTCATTGTATAGTGGGTGTCCCCACTTCA	4280
AAATTACTAAGTTTTCACGTGCTCTACCCCGTATGA	15200
CTTTCCCGATCTTCCCACGTGTTTTTAGCACATTTG	16200
CTAAAAGTGCATTACGACCTGCATCTCCAGTAGTTT	4420
TGCGCAACAACTTGGAGGGTGGGTGTATGTCTAGAA	4040
AAAGTAGTATTCCGTCACGTGATGGTGATCCAATTA	13000
CTAACGAAGGTTTGACTAGTGGGTGACAAGCCAAGT	3440

Set 2
Target: CREBRF, bZIP domain (human)
Technique: DHFR protein complementation
Matrix: yeast
Notes: single substitutions, most at no-binding floor
Relative to: wild-type JUN-FOS pair
Reading: higher = stronger binding
Starting sequence: JUN, bZIP domain (human); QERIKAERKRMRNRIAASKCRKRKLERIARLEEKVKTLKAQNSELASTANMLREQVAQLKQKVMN; partner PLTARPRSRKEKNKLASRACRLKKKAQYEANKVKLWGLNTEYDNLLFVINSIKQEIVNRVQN
Change	binding fitness
N42E	-1.49 natural log
L52A	-1.58 natural log
Q41K	-1.5 natural log
T37C	-1.17 natural log
A40T	-1.29 natural log
E54L	-1.27 natural log
V35P	-1.54 natural log
E54G	-1.39 natural log

Set 3
Target: CCNB2, cyclin fold, Cln2 fusion (human)
Technique: yeast growth competition, sequencing
Matrix: yeast
Notes: weak parent motif
Relative to: not given
Reading: higher = stronger binding
Starting sequence: CDC25A docking peptide (human); PPHRRRLLFACSP
Change	normalised enrichment score
C11A	0.731
R6G	0.259
A10F	-0.102
R4H	-0.0778
L8Q	-0.145
L7F	0.719
L7N	0.95
P13W	-0.0782
R5W	0.709

Further values, each from its own experiment
Molecule	target	test	test system	conditions	scale	measurement	value
PhoQ, residues 284 288 289 292 302 303 NLCILV	PhoP, residues 12 14 15 18 19 HLGGL (Escherichia coli, UniProt P23836)	Sort-seq, measured: YFP reporter	E. coli	PhoQ-PhoP variant library, with: 10 µM Mg2+	relative to: high Mg2+ state, higher = stronger signaling	fold induction	19.4

For quick reference, copied from above (set 3):
Change	normalised enrichment score
R4H	-0.0778
L8Q	-0.145
L7F	0.719
